Measured values pooled from the literature.
Numbers after ± are the reported error.

SMILES | test | system | conditions | scale | remaining compound
C[N+]1(CC(=O)OC2CCCCCCCCCCC2)CCCCC1 | – | mouse liver microsomes | 60 min, without NADPH | – | 91%
CC(C)(CN)S[Se]Cc1ccc(-c2cccc(C(O)c3ccc(Cl)c(Cl)c3)c2)cc1 (centres unmarked) | – | rat liver microsomes without NADPH | 1 h | – | 82%
OC(CN1CCC2(CC1)CC(O)c1ccc3ccccc3c1O2)c1ccc(F)c(F)c1 (centres unmarked) | – | mouse liver microsomes | 60 min | – | 15.6%
C[C@@H](O)[C@H](NC(=O)[C@@H](NC(=O)[C@@H](N)CCCCN)[C@@H](C)O)C(=O)N[C@@H](CCCCN)C(=O)N[C@@H](CO)C(=O)O | LC-MS/MS | mouse dermal skin extract | 40 µg/mL, 30 min, pH 7.4, 37 °C | – | 3.2%
Oc1ccccc1-c1nn(-c2ccccn2)[n+](-c2ccccc2)n1.[Br-] | HPLC | fetal bovine serum | 24 h | – | 100%
Fc1cc(Cl)c(Nc2ccccc2Cc2nnn[nH]2)c(Cl)c1 | glucuronidation | human liver microsomes | 30 min, together with: UDPGA | – | 107 ± 2.2%
CCCC(CCC)NC(=O)c1ccc(O)c(OC)c1 | – | rat liver microsomes | 1.0 µM, 5 min | – | 106%
C=C1C(=O)OC2C1CCC(COC(=O)Nc1ccc(C(F)(F)F)cc1)=C1CCC(C)(O)C12 (centres unmarked) | HPLC | mouse serum | 24 h, 50% and 100% serum | – | 25 to 50%
CC12CC3(C)CC(C)(C1)CC(NC(=O)NC1CCC(Oc4ccc(C(=O)O)cc4)CC1)(C2)C3 (centres unmarked) | – | human liver microsomes | 1 µM, 30 min, 37 °C, 1 mg/mL microsomes, together with: NADPH | – | 0.7 ± 0.2%
CCCCCCCCCCCCCCCC(=O)OC[C@H]1O[C@@H](n2cc(F)c(N)nc2=O)CS1 | – | dog plasma | 1 µM, 90 min, 37 °C | reference: 0 min | 11%
CCc1c2c(nc3ccc(O)cc13)-c1cc3c(c(=O)n1C2)COC(=O)[C@@]3(CC)OC(=O)[C@H](N)C(C)C | – | rat plasma | 5 µM, 120 min, 37 °C | – | 40%
C=C1C[C@@]23CC[C@H]4[C@@](C)(CCC[C@@]4(C)C(=O)O[C@@H]4O[C@H](CO)[C@@H](O)[C@H](O)[C@H]4O)[C@@H]2CC[C@]1(O[C@@H]1O[C@H](CO[C@H]2O[C@H](CO)[C@@H](O)[C@H](O)[C@H]2O)[C@@H](O)[C@H](O)[C@H]1O[C@@H]1O[C@H](CO)[C@@H](O)[C@H](O)[C@H]1O)C3 | HPLC | Britton-Robinson buffer | 0.05 % w/v, time not given, pH 2 | reference: initial | 94.1 ± 0.98%
COC(=O)c1ccc2c(c1)NC(=O)/C2=C(\Nc1ccc2c(c1)CCN2C(=O)CN1CCOCC1)c1ccccc1 | – | cynomolgus monkey plasma | 1 µM, 4 h, 37 °C | – | 104%
COc1cc(NC(C)=O)c2c(c1O)-c1c(OC)c(OC)cc3c1C(C2)N(C)CC3 (centres unmarked) | – | rat lung homogenate | 100 µg/mL, 24 h, room temperature, post-preparative storage | – | 93.5 ± 3.8%
O=C(O)C(F)(F)c1ccccc1Nc1c(Cl)cccc1Cl | – | human liver microsomes | 30 min, together with: NADPH | – | 28 ± 5%
[Ru+2].c1ccc(-c2cccc(-c3ccccn3)n2)nc1.c1ccc2nc(-c3nc4ccccc4s3)ccc2c1.c1cnccn1 | – | water | 24 h, 37 °C | – | 84%
Cc1ccc(OCC(=O)N(Cc2cccs2)c2ccn[nH]2)cc1 | – | dog liver microsomes | 10 µM, 60 min, together with: NADPH | – | ~7.67%

A few entries again:
SMILES | test | system | conditions | scale | remaining compound
Oc1ccccc1-c1nn(-c2ccccn2)[n+](-c2ccccc2)n1.[Br-] | HPLC | fetal bovine serum | 24 h | – | 100%
Fc1cc(Cl)c(Nc2ccccc2Cc2nnn[nH]2)c(Cl)c1 | glucuronidation | human liver microsomes | 30 min, together with: UDPGA | – | 107 ± 2.2%
